Experimental data pooled from the literature.
Each numbered part is a random draw from the data of one study; scales do not carry over between parts.
UniProt Q8TBX8, sequence (whole entry, looked up): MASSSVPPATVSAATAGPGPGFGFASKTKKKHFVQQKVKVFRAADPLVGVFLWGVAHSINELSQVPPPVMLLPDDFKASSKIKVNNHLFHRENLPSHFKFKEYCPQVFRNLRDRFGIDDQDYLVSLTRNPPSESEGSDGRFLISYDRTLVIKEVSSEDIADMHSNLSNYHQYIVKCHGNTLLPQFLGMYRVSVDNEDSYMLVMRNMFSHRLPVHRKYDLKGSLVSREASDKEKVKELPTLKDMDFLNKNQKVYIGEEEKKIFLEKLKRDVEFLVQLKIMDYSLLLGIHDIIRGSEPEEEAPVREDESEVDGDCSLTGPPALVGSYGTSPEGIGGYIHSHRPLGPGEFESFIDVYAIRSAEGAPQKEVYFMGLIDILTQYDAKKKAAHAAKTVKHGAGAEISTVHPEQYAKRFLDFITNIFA
UniProt Q9BQI3, sequence (whole entry, looked up): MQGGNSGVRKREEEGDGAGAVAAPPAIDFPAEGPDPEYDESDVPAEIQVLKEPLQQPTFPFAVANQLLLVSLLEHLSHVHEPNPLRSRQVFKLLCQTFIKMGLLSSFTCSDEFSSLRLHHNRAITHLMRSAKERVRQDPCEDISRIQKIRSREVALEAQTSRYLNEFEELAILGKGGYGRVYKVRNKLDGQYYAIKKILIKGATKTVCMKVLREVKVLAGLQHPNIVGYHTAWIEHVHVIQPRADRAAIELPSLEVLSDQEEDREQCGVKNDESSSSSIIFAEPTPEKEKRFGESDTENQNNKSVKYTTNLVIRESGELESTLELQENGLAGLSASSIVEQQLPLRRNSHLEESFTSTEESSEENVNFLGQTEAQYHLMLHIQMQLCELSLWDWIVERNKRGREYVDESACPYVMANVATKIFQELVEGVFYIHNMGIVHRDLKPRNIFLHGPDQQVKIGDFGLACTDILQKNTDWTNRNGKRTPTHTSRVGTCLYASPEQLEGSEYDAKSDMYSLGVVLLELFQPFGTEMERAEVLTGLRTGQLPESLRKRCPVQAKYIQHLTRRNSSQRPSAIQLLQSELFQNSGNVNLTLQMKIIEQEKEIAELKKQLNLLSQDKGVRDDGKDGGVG
UniProt P50750, sequence (whole entry, looked up): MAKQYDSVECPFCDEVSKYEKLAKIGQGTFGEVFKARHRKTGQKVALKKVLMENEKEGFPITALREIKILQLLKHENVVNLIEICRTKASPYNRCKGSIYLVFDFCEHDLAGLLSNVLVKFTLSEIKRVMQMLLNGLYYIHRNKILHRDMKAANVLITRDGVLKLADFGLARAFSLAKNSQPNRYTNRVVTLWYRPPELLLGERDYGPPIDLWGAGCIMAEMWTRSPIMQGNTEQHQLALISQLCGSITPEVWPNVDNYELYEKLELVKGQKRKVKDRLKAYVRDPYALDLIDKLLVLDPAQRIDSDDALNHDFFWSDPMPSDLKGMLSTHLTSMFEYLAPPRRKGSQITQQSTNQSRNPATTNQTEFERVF
UniProt Q13237, sequence (whole entry, looked up): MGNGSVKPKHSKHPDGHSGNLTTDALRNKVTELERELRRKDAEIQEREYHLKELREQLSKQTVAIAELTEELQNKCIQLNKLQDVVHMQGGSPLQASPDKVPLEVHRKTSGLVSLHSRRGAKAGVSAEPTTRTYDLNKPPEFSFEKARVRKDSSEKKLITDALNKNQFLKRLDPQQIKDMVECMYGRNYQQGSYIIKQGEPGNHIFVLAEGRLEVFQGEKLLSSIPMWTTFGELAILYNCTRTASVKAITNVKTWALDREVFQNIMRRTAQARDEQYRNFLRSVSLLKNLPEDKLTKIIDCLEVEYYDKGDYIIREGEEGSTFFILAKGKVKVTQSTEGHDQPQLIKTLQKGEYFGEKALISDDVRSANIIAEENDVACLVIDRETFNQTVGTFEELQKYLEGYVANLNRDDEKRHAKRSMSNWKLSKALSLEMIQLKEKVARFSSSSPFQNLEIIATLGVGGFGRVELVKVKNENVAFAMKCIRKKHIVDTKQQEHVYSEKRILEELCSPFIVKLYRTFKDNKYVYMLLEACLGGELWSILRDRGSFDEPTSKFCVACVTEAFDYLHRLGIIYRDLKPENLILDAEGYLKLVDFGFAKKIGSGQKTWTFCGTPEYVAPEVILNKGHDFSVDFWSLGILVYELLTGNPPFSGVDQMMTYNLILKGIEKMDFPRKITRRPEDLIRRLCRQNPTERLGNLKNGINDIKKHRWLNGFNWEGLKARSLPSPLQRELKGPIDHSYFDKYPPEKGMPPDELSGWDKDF
UniProt Q6DT37, sequence (whole entry, looked up): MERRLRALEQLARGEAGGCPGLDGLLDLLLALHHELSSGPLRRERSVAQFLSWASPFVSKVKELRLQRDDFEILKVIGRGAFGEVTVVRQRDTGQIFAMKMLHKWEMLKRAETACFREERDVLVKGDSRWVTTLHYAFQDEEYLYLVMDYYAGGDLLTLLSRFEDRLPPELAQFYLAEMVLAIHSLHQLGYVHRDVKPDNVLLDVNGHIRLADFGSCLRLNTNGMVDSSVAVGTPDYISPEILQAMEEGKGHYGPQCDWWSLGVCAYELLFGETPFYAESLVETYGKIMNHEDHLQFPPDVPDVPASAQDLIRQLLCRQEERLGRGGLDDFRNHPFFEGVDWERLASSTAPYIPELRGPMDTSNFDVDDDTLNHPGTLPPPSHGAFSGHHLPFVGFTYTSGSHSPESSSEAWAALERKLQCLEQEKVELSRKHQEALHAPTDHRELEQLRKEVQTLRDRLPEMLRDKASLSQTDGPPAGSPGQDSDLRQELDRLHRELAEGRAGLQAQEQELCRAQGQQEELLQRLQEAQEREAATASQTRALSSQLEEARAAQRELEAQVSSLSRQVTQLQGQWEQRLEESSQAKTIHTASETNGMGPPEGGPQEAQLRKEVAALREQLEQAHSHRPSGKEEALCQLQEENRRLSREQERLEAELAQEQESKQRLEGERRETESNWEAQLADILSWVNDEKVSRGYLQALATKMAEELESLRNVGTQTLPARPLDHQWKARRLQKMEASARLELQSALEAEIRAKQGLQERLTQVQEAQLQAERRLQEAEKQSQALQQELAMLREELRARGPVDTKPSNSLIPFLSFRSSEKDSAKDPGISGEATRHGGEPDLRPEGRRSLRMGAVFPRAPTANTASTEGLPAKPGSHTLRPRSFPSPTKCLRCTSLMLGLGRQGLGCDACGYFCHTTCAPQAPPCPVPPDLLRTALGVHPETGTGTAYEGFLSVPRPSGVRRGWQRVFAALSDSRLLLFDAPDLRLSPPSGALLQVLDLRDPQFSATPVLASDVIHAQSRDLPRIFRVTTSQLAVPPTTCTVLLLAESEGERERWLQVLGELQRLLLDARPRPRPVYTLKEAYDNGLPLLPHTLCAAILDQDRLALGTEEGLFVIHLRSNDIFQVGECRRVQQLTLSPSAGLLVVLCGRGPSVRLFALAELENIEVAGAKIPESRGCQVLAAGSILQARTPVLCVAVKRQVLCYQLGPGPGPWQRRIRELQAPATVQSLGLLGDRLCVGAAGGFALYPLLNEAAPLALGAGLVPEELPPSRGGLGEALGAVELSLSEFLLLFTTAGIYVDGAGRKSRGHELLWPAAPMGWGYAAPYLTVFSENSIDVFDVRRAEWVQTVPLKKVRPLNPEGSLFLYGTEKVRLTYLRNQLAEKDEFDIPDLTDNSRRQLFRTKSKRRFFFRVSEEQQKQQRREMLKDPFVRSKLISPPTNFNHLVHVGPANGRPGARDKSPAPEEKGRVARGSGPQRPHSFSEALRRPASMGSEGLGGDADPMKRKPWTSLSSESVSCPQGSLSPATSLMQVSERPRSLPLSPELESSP
UniProt Q9P0L2, sequence (whole entry, looked up): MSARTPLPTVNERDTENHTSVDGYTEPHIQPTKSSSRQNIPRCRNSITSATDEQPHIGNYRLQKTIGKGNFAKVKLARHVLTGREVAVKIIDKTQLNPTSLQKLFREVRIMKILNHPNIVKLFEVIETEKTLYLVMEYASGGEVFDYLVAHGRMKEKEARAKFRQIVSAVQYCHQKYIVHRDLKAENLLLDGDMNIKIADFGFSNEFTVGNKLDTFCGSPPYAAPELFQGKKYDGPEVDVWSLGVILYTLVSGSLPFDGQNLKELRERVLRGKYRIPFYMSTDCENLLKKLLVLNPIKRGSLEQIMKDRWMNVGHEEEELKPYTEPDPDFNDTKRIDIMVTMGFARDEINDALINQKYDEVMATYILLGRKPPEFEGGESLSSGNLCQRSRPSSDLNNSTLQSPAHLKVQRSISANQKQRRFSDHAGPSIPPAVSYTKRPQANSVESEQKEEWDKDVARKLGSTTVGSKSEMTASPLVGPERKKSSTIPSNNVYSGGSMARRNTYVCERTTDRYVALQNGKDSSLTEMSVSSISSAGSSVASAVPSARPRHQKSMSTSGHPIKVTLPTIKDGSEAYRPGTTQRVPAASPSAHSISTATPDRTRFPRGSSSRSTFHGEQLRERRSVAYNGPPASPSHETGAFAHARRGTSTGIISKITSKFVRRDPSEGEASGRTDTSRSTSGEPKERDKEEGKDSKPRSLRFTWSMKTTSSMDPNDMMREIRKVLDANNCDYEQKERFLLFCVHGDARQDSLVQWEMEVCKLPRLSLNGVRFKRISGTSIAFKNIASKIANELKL

Set 1
SMILES: COc1ccc2c(c1)c(C1=C(c3c[nH]c4ccccc34)C(=O)NC1=O)cn2CCCN(C)C
Read-out: enzyme activity
Mode: inhibitor
Tested at: 0.5 µM
Reference: control
target	remaining activity [%]
MAPK1 (Homo sapiens, UniProt P28482)	102
MARK4 (Homo sapiens, UniProt Q96L34)	95.9
RPS6KA4 (Homo sapiens, UniProt O75676)	78.6
PRKG2 (Homo sapiens, UniProt Q13237)	60.7
MARK2 (Homo sapiens, UniProt Q7KZI7)	91.8
GRK4 (Homo sapiens, UniProt P32298)	92.8
Cyclin-dependent kinase 9, with cyclin K (CDK9, Homo sapiens, UniProt P50750)	54.6
Cyclin-dependent kinase 1, with cyclin A (CDK1, Homo sapiens, UniProt P06493)	95.7
MAPK14 (Homo sapiens, UniProt Q16539)	103
PLK3 (Homo sapiens, UniProt Q9H4B4)	93
DDR2 (Homo sapiens, UniProt Q16832)	101
MAP2K1 (Homo sapiens, UniProt Q02750)	85
DCLK2 (Homo sapiens, UniProt Q8N568)	84.8

Set 2
Organism: Plasmodium berghei
Mode: inhibitor
Cell line: Huh-7
Strain: GFP-expressing, liver stage
Tested at: 10 µM
Time: 24 h
Reference: untreated control
SMILES	infection rate
COc1cc(NS(=O)(=O)c2ccc(N)cc2)nc(OC)n1	99.2%
CC[C@H]1OC(=O)C[C@@H](O)[C@H](C)[C@@H](O[C@@H]2O[C@H](C)[C@@H](O)[C@H](N(C)C)[C@H]2O)[C@@H](CCN2C[C@H](C)C[C@H](C)C2)C[C@@H](C)C(=O)/C=C/C(C)=C/[C@@H]1CO[C@@H]1O[C@H](C)[C@@H](O)[C@@H](OC)[C@H]1OC	114%
CC(C)[C@H](N)C(=O)OCCOCn1cnc2c(=O)nc(N)[nH]c21	108%
CC(C)CCCC(C)N (stereo not drawn)	97.9%
CCN(CC)CCOc1ccc2c(c1)C(=O)c1cc(OCCN(CC)CC)ccc1-2	35.4%
CC(=O)O[C@H]1C[C@@H]2CC[C@@H]3[C@H](CC[C@@]4(C)[C@H]3C[C@H]([N+]3(C)CCCCC3)[C@@H]4OC(C)=O)[C@@]2(C)C[C@@H]1N1CCCCC1	113%
CCCCNc1ccc(C(=O)OCCN(C)C)cc1	103%
CCCCC1C(=O)N(c2ccccc2)N(c2ccc(O)cc2)C1=O (stereo not drawn)	80.1%

Set 3
Structure (SMILES): CC(=O)Nc1c(C(C)=O)c(=O)n(C)c2nc(-c3ccc(Cl)cc3Cl)c(-c3ccc(Cl)cc3)cc12
Tested at: 1 µM
target	read-out	technique	remaining binding [%]
PIP4K2C (Homo sapiens, UniProt Q8TBX8)	cell-free assay	competition with immobilised ligand	100
MARK1 (Homo sapiens, UniProt Q9P0L2)	cell-free assay	competition with immobilised ligand	100
PRKAA1 (Homo sapiens, UniProt Q13131)	cell-free assay	competition with immobilised ligand	100
KIT (Homo sapiens, UniProt P10721, V559D)	cell-free assay	competition with immobilised ligand	100
CDC42BPG (Homo sapiens, UniProt Q6DT37)		competition binding	100
CSNK1G3 (Homo sapiens, UniProt Q9Y6M4)	cell-free assay	competition with immobilised ligand	100
EIF2AK1 (Homo sapiens, UniProt Q9BQI3)	cell-free assay	competition with immobilised ligand	68

Set 4
Target: Synaptic vesicular amine transporter (SLC18A2, Homo sapiens, UniProt Q05940)
UniProt Q05940, sequence (whole entry, looked up): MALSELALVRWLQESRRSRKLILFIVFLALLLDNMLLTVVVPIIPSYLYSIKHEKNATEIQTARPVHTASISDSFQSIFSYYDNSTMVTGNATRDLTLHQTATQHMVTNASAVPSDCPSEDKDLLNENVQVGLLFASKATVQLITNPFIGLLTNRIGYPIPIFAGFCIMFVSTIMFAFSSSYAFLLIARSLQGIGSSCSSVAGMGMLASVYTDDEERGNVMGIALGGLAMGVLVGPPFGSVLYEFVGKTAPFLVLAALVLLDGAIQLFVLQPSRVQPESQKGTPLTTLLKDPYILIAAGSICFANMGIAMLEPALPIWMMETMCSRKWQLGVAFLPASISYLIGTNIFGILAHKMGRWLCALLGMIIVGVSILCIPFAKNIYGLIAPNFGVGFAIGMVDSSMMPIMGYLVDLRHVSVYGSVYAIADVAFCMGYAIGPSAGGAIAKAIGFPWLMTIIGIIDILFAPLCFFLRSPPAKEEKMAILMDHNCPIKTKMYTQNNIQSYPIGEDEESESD
Read-out: transporter uptake
Mode: inhibitor
Technique: radiometric
Setting: cell membranes
Compound	IC50
CN1CCN2c3c(cccc31)[C@@H]1CN(CCCC(=O)c3ccc(F)cc3)CC[C@@H]12	62 nM
O=C(CCCN1CCC(O)(c2ccc(Cl)cc2)CC1)c1ccc(F)cc1	186 nM
COc1cc2c(Nc3ccc(Br)cc3F)ncnc2cc1OCC1CCN(C)CC1	514 nM
COc1ccccc1OCCNCC(O)COc1cccc2[nH]c3ccccc3c12 (stereo not drawn)	53 nM
CN(C)C(=O)N[C@H]1CC[C@H](CCN2CCN(c3cccc(Cl)c3Cl)CC2)CC1	845 nM

For quick reference, copied from above (set 1):
target	remaining activity [%]
DCLK2 (Homo sapiens, UniProt Q8N568)	84.8
PRKG2 (Homo sapiens, UniProt Q13237)	60.7
MAPK1 (Homo sapiens, UniProt P28482)	102
